Measurements gathered from unrelated publications.
Numbered parts are unrelated; each lists some results of a single study. Positions count from the first letter of the parent shown.
UniProt Q15418, sequence (whole entry, looked up): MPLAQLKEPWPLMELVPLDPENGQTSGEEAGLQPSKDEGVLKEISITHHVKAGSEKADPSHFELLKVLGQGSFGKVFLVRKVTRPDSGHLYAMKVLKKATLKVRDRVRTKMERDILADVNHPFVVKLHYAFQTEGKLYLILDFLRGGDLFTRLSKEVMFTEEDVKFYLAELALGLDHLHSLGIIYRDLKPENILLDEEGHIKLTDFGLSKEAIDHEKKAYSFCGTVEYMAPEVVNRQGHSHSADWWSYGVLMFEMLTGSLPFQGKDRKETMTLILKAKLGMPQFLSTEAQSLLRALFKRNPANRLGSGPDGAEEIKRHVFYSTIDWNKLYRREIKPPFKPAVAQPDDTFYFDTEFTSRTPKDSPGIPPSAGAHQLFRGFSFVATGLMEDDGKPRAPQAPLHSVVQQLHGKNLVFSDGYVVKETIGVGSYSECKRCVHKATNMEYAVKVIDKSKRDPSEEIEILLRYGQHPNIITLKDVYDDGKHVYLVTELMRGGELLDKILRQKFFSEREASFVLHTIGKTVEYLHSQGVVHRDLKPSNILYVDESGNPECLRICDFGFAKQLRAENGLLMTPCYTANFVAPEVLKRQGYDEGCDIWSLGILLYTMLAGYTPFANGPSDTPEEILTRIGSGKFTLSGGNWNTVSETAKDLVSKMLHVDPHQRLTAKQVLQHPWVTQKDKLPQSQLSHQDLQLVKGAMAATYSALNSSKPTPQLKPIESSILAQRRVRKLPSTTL
UniProt Q6PHR2, sequence (whole entry, looked up): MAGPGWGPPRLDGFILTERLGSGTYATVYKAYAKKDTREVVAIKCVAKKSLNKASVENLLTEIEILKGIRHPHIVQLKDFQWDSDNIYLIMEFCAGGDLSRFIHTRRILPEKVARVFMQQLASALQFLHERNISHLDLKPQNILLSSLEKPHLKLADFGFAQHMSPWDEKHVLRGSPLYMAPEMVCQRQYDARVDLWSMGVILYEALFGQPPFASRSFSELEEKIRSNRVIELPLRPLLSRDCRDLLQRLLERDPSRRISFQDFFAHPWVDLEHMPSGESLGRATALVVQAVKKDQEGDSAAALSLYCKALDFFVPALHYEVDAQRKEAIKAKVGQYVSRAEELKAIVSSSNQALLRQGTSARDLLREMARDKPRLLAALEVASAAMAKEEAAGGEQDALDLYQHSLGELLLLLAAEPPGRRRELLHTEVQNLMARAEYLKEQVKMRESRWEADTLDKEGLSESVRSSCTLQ
UniProt P51451, sequence (whole entry, looked up): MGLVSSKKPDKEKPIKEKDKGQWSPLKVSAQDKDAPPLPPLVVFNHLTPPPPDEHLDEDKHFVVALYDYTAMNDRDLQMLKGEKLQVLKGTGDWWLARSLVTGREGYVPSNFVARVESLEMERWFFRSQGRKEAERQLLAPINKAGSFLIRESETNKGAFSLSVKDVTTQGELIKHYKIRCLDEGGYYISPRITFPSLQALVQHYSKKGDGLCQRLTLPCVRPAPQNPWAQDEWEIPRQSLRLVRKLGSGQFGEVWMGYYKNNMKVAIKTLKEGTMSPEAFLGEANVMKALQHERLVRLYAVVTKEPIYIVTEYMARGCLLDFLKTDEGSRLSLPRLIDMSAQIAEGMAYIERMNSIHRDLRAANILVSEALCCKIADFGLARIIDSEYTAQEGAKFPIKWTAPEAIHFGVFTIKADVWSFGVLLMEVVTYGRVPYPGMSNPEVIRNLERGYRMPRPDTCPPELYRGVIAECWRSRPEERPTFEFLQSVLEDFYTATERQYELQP
UniProt P54646, sequence (whole entry, looked up): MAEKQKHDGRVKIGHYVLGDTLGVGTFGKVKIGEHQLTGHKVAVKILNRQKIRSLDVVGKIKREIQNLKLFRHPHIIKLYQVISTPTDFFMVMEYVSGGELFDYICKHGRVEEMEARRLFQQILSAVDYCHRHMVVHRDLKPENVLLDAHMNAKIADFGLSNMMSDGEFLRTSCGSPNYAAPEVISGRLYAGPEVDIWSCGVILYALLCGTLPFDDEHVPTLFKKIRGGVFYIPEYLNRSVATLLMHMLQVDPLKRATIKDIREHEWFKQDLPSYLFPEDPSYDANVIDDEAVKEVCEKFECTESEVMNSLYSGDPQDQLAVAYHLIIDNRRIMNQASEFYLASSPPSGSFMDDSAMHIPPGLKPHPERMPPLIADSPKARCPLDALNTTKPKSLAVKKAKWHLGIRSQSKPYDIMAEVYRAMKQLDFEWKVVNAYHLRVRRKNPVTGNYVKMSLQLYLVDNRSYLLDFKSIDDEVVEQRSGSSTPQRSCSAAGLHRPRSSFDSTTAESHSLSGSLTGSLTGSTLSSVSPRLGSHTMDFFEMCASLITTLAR
UniProt O14936, sequence (whole entry, looked up): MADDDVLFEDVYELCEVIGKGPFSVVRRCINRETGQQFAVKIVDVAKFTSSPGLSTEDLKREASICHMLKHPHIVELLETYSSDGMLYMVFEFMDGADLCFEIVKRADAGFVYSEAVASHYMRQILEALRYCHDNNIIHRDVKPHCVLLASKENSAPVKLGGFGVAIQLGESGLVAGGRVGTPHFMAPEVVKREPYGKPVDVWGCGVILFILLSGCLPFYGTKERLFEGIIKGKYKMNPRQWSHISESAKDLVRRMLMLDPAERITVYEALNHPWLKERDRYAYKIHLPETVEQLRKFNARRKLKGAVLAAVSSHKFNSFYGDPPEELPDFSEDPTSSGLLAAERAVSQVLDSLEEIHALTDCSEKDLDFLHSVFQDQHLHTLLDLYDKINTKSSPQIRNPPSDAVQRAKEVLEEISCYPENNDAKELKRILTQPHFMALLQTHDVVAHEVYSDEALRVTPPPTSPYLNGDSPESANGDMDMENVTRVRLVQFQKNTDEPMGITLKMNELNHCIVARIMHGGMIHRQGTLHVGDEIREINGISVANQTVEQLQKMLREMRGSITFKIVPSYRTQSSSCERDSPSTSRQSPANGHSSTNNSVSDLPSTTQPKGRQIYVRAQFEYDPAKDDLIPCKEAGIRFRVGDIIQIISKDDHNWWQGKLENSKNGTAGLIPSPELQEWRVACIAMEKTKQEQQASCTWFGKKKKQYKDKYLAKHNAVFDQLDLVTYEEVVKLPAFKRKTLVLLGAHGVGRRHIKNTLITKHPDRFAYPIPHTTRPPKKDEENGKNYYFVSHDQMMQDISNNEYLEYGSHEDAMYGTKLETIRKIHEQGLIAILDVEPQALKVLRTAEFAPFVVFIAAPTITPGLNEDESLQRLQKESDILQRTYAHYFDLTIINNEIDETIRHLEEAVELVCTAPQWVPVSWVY
UniProt P30530, sequence (whole entry, looked up): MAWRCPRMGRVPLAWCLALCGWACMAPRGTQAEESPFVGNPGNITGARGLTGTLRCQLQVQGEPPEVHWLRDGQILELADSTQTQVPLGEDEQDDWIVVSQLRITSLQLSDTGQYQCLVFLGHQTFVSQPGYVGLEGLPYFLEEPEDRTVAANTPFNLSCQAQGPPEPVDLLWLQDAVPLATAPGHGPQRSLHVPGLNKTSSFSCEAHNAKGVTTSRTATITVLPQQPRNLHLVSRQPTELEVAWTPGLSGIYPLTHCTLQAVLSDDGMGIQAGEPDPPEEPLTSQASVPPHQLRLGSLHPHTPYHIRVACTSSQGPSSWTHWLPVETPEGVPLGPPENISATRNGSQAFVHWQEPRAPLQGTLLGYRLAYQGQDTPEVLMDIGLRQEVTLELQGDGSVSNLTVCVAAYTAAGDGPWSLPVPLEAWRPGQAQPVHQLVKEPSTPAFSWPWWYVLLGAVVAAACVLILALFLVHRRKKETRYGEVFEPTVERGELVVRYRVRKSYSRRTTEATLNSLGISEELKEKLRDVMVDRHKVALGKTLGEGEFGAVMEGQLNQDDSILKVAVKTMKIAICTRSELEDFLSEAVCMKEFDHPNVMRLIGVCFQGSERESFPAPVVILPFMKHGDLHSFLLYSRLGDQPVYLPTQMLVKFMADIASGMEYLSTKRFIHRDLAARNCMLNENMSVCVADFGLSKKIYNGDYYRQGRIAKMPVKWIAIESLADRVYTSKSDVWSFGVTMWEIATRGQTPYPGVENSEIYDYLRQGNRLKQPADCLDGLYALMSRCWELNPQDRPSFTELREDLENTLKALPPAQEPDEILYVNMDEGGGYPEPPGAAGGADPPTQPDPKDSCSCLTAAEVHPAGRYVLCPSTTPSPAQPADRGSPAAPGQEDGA
UniProt Q16816, sequence (whole entry, looked up): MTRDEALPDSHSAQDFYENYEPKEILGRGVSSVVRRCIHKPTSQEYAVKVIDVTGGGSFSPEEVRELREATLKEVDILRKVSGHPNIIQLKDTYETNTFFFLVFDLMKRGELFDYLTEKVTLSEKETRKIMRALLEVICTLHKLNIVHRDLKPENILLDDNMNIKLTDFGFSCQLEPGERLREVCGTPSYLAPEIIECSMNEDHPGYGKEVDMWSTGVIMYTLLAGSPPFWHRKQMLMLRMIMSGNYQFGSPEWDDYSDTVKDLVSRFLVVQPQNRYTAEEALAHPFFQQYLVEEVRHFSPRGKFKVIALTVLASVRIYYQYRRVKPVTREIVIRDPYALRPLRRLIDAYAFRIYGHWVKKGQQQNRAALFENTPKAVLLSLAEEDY
UniProt P46734, sequence (whole entry, looked up): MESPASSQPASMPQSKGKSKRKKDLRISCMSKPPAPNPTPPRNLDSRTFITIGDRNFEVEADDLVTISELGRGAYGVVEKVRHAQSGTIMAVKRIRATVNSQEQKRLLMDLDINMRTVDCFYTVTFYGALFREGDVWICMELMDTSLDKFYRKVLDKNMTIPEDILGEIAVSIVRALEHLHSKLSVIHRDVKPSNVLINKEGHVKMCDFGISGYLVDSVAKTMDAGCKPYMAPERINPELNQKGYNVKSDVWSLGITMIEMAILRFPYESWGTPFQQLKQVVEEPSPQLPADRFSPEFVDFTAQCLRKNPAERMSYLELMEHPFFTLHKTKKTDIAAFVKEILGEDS

Study 1
SMILES: Cc1cncc2cccc(S(=O)(=O)N3CCCN(C(=O)CN)C[C@@H]3C)c12
Effect on: enzyme activity
Action: inhibitor
Concentration: 0.5 µM
Baseline: control
| target | remaining activity [%] |
| --- | --- |
| Phosphorylase b kinase gamma catalytic chain, skeletal muscle/heart isoform (PHKG1, Homo sapiens, UniProt Q16816) | 65.3 |
| Tyrosine-protein kinase Blk (BLK, Homo sapiens, UniProt P51451) | 97.7 |
| Cyclin-dependent kinase 4, with cyclin D3 (CDK4, Homo sapiens, UniProt P11802) | 105 |

Study 2
Compound: Cc1noc([C@H]2C[C@@H](c3ccc(C(F)(F)F)cc3)CN(C(=O)N3CCS(=O)(=O)C3)C2)n1
Effect on: cell-free assay
Method: competition with immobilised ligand
Concentration: 1 µM
| target | remaining binding |
| --- | --- |
| Testis-specific serine/threonine-protein kinase 3 (TSSK3, Homo sapiens, UniProt Q96PN8) | 100% |
| Proto-oncogene tyrosine-protein kinase ROS (ROS1, Homo sapiens, UniProt P08922) | 86% |
| Peripheral plasma membrane protein CASK (CASK, Homo sapiens, UniProt O14936) | 93% |
| Ribosomal protein S6 kinase alpha-1, C-terminal kinase domain (RPS6KA1, Homo sapiens, UniProt Q15418) | 100% |
| 5'-AMP-activated protein kinase catalytic subunit alpha-2 (PRKAA2, Homo sapiens, UniProt P54646) | 66% |
| Tyrosine-protein kinase receptor UFO (AXL, Homo sapiens, UniProt P30530) | 100% |
| G protein-coupled receptor kinase 3 (GRK3, Homo sapiens, UniProt P35626) | 100% |
| Mitogen-activated protein kinase kinase kinase kinase 4 (MAP4K4, Homo sapiens, UniProt O95819) | 100% |
| Ribosomal protein S6 kinase alpha-1, N-terminal kinase domain (RPS6KA1, Homo sapiens, UniProt Q15418) | 87% |
| Non-receptor tyrosine-protein kinase TYK2, JH2 (TYK2, Homo sapiens, UniProt P29597) | 100% |
| Dual specificity mitogen-activated protein kinase kinase 3 (MAP2K3, Homo sapiens, UniProt P46734) | 98% |
| Serine/threonine-protein kinase ULK3 (ULK3, Homo sapiens, UniProt Q6PHR2) | 77% |
| Mitogen-activated protein kinase kinase kinase 13 (MAP3K13, Homo sapiens, UniProt O43283) | 100% |

Study 3
Target: ABI1, truncated, D143A, DHFR fusion (Arabidopsis thaliana, UniProt P49597)
Method: DHFR PCA, dose-response
Sample: yeast
Notes: Hill fit, mean, not affinity
Together with: (+)-ABA, dose series
Direction: lower = more sensitive
Starting sequence: PYL1, truncated, DHFR fusion (Arabidopsis thaliana, UniProt Q8VZS8); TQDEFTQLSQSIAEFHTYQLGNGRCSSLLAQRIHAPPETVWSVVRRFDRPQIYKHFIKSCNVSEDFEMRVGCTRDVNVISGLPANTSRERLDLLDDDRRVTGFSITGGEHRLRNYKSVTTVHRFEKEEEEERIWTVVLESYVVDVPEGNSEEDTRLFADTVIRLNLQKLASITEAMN
| Substitution | ABA EC50 [µM] |
| --- | --- |
| V70E | 6.82 |
| W134R | 9.44 |
| S42D | 3.6 |
| R163H | 15.9 |
| T120Q | 137 |
| S27G | 2.65 |
| G107R | 94 |
| T120N | 636 |

Further values, each from its own experiment
Method: cross-linking MS
Sample: cell fractions
Together with: DSSO
| Substance | partner | cross-linked residues |
| --- | --- | --- |
| PPRC1 (Homo sapiens, UniProt Q5VV67) | RSBN1 (Homo sapiens, UniProt Q5VWQ0) | T767 to T243 |
| RIPOR1 (Homo sapiens, UniProt Q6ZS17) | NDUFA12 (Homo sapiens, UniProt Q9UI09) | S1104 to K43 |
